Published values gathered from unrelated publications.
Lines come from different studies, so protocols differ. ± marks the error that the study gave.

SMILES	cell line	observed	technique	sample	time	notes	CC50 [µM]
CCC(CC)COC(=O)[C@H](C)N[P@](=O)(OC[C@H]1O[C@@](C#N)(c2ccc3c(N)ncnn23)[C@H](O)[C@@H]1O)Oc1ccccc1	Vero (eGFP)				15 h		> 100
COc1cc(/C=C/C(=O)CC(=O)/C=C/c2ccc(O)c(OC)c2)ccc1O	African green monkey cells				5 days		14.8
CCOC(=O)C1=C(CN2CCC[C@@H]2C(=O)Nc2ccc(B(O)O)cc2)NC(c2nccs2)=N[C@H]1c1ccc(F)cc1Br	HepDES19		MTS		3 days		32
CC(C)/N=c1\cc2n(-c3ccc(Cl)cc3)c3ccccc3nc-2cc1Nc1ccc(Cl)cc1	African green monkey cells				40 (unit not given)		> 2.5
N#Cc1ccc2c(c1)N(CCCN1CCC(O)CC1)c1ccccc1S2	African green monkey cells				5 days		12.7
O=c1cccc(O)c(O)c1O	HepDES19						100
O=C1CCc2ccc(OCCCCN3CCN(c4cccc(Cl)c4Cl)CC3)cc2N1	African green monkey cells				5 days		11.4
CC(C)[C@H](NC(=O)c1ccccc1NC(=O)c1ccccc1)C(=O)N[C@H](CO)C(C)C	293T		MTT		24 h		> 250
CC(=O)c1cc(-c2ccsc2)ccc1OCCc1cccc(F)c1	HepG2			galactose medium	3 (unit not given)		28 ± 1
C=C(C)[C@@]12C[C@@H](COC(=O)c3ccccc3)[C@@]34OC5(O[C@@H]1[C@@H]3[C@@H]1O[C@]1(CO)[C@@H](O)[C@@]1(O)[C@H]4[C@H]([C@H](C)[C@@H]1OC(=O)c1ccccc1)[C@H](C)CCCCCC[C@H]5O)O2	MT4	cell viability					> 6.45
NC(=O)c1cc(F)ccc1OCCc1cccc(F)c1	HepG2			galactose medium	3 (unit not given)		> 100
C1=C(c2ccc(CN3CCCCC3)cc2)N2CCN=C2c2ccccc21	Huh-7-ACE2				40 (unit not given)		5.8
O=C(NC1CC1)c1cc(-c2ccoc2)ccc1OCCc1cccc(F)c1	HepG2			galactose medium	3 (unit not given)		26 ± 5
CCNC/C=C\CNCCCCNCCCCNC/C=C\CNCC	Huh-7-ACE2				40 (unit not given)		> 2.5
COc1ccc(-c2ccc(OCCc3cccc(F)c3)c(C(N)=O)c2)cc1	HepG2			galactose medium	3 (unit not given)		> 100
COc1cc2c3cc1Oc1cc(ccc1O)CC1c4c(cc(OC)c(O)c4Oc4ccc(cc4)CC3N(C)CC2)CCN1C (stereo not drawn)	African green monkey cells				5 days		11.5
CN(C)CCn1c(C(=O)N2CCN(c3ccccc3Cl)CC2)c(C(c2ccc(O)cc2)c2ccc(O)cc2)c2ccccc21	Huh-7-ACE2				40 (unit not given)		> 2.5

SMILES	cell line	observed	technique	sample	time	notes	CC50 [µM]
CCc1ccc(OCCc2cccc(F)c2)c(C(N)=O)c1	HepG2			galactose medium	3 (unit not given)		20 ± 1.5
CNC(=O)[C@@]12C[C@@H]1[C@@H](n1cnc3c(NC)nc(C#Cc4ccc(Cl)s4)nc31)[C@H](O)[C@@H]2O	Vero 76	cytotoxicity	neutral red				> 100
O=C(Nc1cc(F)c(F)c(F)c1)c1ccc(F)c(S(=O)(=O)NCc2cccc(B(O)O)c2)c1	HepDES19				3 d		19.4 ± 5
COc1ccc(CCOc2ccc(-c3ccsc3)cc2C(N)=O)cc1F	HepG2				3 (unit not given)	human	21 ± 4
OC(CCCN1CCc2c(c3cc(F)ccc3n2-c2ccc(F)cc2)C1)c1ccc(F)cc1 (stereo not drawn)	African green monkey cells				5 days		6.92
C[C@@H]1CN(c2ncc(C(O)CO)cc2Cl)CCN1c1nc2c(-c3cc(F)c(F)c(F)c3)cc(C(F)(F)F)cc2[nH]1 (stereo partly drawn)	Huh-7-ACE2				40 (unit not given)		> 2.5
O=C(NN1C(=O)C2C3C=CC(C4CC34)C2C1=O)c1ccc(C(F)(F)F)cc1 (stereo not drawn)	African green monkey cells				3 (unit not given)		> 106
c1ccc(C(c2ccccc2)N2CCN(CCCC3(c4ccccc4)OCCO3)CC2)cc1	African green monkey cells				5 days		17.4
C=C(C)[C@]12C[C@@H](C)[C@]34OC5(CCCCCCC[C@@H](C)[C@@H]6[C@@H]3[C@]3(O[C@]6(C)OC3=O)[C@H](O)[C@@]3(CO)O[C@H]3[C@H]4[C@H]1O5)O2	MT4		CellTiter-Glo				> 38.5
CCC(CC)COC(=O)[C@H](C)N[P@](=O)(OC[C@H]1O[C@@](C#N)(c2ccc3c(N)ncnn23)[C@H](O)[C@@H]1O)Oc1ccccc1	Huh-7-ACE2				40 (unit not given)		0.98
COc1ccc2c(c1)N(CCCN(C)C)c1ccccc1S2	African green monkey cells				5 days		14.1
CC(C)CC(NC(=O)OCc1ccccc1)C(=O)NC(C(=O)NCC(=O)C=[N+]=[N-])C(C)C (stereo not drawn)	Huh-7-ACE2				40 (unit not given)		> 2.5
NC(=O)c1cc(-c2ccsc2)cc(F)c1OCCc1cccc(F)c1	HepG2			galactose medium	3 (unit not given)		24 ± 7
CC[C@@H](C(=O)[C@@H](C)[C@@H](O)[C@H](C)CCc1ccc(C)c(O)c1C(=O)O)[C@H]1O[C@](CC)([C@H]2CC[C@](O)(CC)[C@H](C)O2)C[C@@H]1C	African green monkey cells				5 days		5.37
CC(C)(C)NCc1ccc(Nc2ccnc3cc(Cl)ccc23)cc1O	Huh-7-ACE2				40 (unit not given)		> 2.5
CNC(=O)c1cc(-c2ccoc2)ccc1OCCc1cccc(F)c1	HepG2			galactose medium	3 (unit not given)		> 100
